Assay results collected from several papers.
Numbered parts are unrelated; each lists some results of a single study. Substitutions count along the parent as printed.

Block 1
Target: TATA-box-binding protein 1 (TBP1, Arabidopsis thaliana, UniProt P28147, residues 1-200, full length assumed)
Technique: protein-binding microarray
Form: double-stranded DNA, one strand shown
Sample: in vitro
Tested at: not given
Setting: k-mer, scored over probes, only values ≥0.25
Direction: higher = stronger binding
Residues (chain): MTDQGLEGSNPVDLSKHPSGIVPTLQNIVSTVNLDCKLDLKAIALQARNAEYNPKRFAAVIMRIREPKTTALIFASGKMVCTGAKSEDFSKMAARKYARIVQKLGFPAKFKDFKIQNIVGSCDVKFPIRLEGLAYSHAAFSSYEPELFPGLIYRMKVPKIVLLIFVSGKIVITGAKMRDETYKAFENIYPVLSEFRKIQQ
| Oligonucleotide | E-score |
| --- | --- |
| TGATTAA | 0.351 |
| AAATAAT | 0.34 |
| CCATTAA | 0.261 |
| ATAATCC | 0.278 |
| GATATTA | 0.373 |
| CTATTAA | 0.379 |
| CTTAAAG | 0.287 |
| TTAATAA | 0.413 |
| GCTATAA | 0.343 |
| ATAAAGG | 0.429 |
| TATAAAA | 0.475 |
| GCCTTAA | 0.266 |
| GATTTTA | 0.258 |
| AGTATAA | 0.428 |
| GTTATAA | 0.449 |
| AATATAA | 0.472 |
| ATAAGTA | 0.372 |

Block 2
Target: Fragile X messenger ribonucleoprotein 1, C-terminal low-complexity region (Fmr1, Mus musculus, UniProt P35922)
Technique: RNA Bind-n-Seq
Form: RNA
Sample: in vitro
Tested at: 200 nM
Setting: whole 134-nt RNA, ends assumed
With: 150 mM LiCl
Baseline: input library
Direction: higher = stronger binding
Each molecule: 7-deaza-guanosine replaces G
| Oligonucleotide | log2 enrichment |
| --- | --- |
| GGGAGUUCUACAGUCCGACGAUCGCAGGAAGUAAAAACAAAUGGAAAUGCUUCGGAUAGUGGGAGGGGUGGGGGUUGCUAAGGAAAGGGUGGGAUGGGAGUGGGUAAAGAGUUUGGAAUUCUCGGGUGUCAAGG | 1.21 |
| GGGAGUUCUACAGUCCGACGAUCUAACUUUAGAGGAGGAUCUGAUGGAUAUGGCAGUGGACGUGGAUUUGGGGAUGGCUAUAAUGGGUAUGGAGGAGGACCUGGAGGUGGCAUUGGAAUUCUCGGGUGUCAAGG | 0.18 |
| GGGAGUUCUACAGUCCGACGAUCCUCAAGUCCUGUGCUACACAUCGUAUGUACCGAAUCGGGGCGGGGCGGGGCGGGAAAGUAUUAUGUUACGCCGUUCGGAUCUGCACUUCCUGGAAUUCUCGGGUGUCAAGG | -0.663 |
| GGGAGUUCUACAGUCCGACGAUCUGGGAGGUGGAUUUUGUUUAUAUUUUUAGCUCAUUUCCAGGGGUGGGAAUUUUUUUUUAAUAUGUGUCAUGAAUAAAGUUGUUUUUGAAAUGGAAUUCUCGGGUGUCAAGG | -0.113 |
| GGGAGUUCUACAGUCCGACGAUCUCCUGUGCUACACAUCGUAUGUACCGAAUCGGGGAAAAAAGGAAAAAAGGGAAAAAAGGGAAAGUAUUAUGUUACGCCGUUCGGAUCUGCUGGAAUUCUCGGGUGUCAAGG | 0.12 |
| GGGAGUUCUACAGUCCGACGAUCUAACUUCAGAGGAGGAUCUGAUGGAUAUGGCAGUGGACGUGGAUUUGGGGAUGGCUAUAAUGGGUAUGGAGGAGGACCUGGAGGUGGCAAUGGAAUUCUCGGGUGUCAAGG | 0.414 |
| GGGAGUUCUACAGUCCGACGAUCCCUCAAGUCCUGUGCUACACAUCGUAUGUACCGAAUCGGAGGGGAGGGGAGGAAAGUAUUAUGUUACGCCGUUCGGAUCUGCACUUCCAGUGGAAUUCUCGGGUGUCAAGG | -0.761 |
| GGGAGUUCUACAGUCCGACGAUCUGGCCCUGGUGACAUGCGGGGAGGAAGAGGUGGCCUCAUGGAUCGUGGUGGUCCCGGUGGAAUGUUCAGAGGUGGCCGUGGUGGAGACAGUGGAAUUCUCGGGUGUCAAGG | -0.65 |

Block 3
Target: BATF3, bZIP domain (human)
Technique: DHFR protein complementation
Sample: yeast
Setting: single substitutions, most at no-binding floor
Baseline: wild-type JUN-FOS pair
Direction: higher = stronger binding
Parent: JUN, bZIP domain (human); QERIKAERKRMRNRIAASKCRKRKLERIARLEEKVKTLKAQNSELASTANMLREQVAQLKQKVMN; partner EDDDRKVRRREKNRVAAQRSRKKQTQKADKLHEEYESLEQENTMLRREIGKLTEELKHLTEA
| Variant | binding fitness [natural log] |
| --- | --- |
| L45V | -0.465 |
| Q55D | 0.00151 |
| E54K | 0.131 |
| A46K | 0.255 |
| E33K | 0.14 |
| L52Y | -0.0554 |
| E54T | 0.159 |
| E44W | 0.0504 |
| V35R | -0.0732 |
| E54M | 0.166 |

Block 4
Target: ABI1, truncated, D143A, DHFR fusion (Arabidopsis thaliana)
Technique: DHFR PCA, deep sequencing
Sample: yeast
Setting: methotrexate growth selection, single substitutions
With: (+)-ABA 0 µM
Baseline: wild-type fitted maximum
Direction: higher = stronger binding
Parent: PYL1, truncated, DHFR fusion (Arabidopsis thaliana); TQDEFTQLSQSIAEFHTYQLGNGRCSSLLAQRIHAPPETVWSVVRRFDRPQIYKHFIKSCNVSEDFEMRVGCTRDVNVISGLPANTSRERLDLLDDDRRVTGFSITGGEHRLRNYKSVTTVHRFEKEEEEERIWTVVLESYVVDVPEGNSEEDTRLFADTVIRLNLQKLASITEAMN; partner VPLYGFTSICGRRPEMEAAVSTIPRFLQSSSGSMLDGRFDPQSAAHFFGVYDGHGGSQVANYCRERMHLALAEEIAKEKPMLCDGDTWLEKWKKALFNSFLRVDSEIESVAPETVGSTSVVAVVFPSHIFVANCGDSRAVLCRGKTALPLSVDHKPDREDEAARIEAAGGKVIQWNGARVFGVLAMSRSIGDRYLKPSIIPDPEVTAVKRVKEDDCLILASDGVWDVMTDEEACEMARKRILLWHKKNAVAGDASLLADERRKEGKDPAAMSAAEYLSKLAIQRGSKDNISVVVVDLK
| Variant | relative binding score [%] |
| --- | --- |
| D97E | 45.2 |
| T1S | 27.6 |
| I79P | -0.124 |
| V100A | 24.1 |
| G71L | 0.899 |
| S11N | 7.29 |
| G71C | 1.64 |
| T160H | 6.27 |
| S150P | 2.23 |
| D3E | 47 |
| Y141Q | -2.36 |
| S171R | 42.6 |
| I79E | 12.4 |
| S80A | 12.6 |

Block 5
Target: Histone acetyltransferase KAT6A, both winged helices, GST fusion (KAT6A, Homo sapiens, UniProt Q92794, residues 1-181)
Technique: protein binding microarray
Form: double-stranded DNA, one strand shown
Sample: in vitro
Tested at: not given
Setting: 8-mer, flanks averaged, mean of 2 arrays, mostly near background
Baseline: not given
Direction: higher = stronger binding
Construct (chain): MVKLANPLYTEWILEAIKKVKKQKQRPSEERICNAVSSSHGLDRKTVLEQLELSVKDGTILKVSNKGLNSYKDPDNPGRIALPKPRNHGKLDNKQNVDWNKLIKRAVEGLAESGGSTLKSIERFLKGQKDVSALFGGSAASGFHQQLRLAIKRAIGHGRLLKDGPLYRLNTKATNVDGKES
| Oligonucleotide | E-score |
| --- | --- |
| AAAATTTA | -0.0356 |
| GAGTGGAC | -0.0919 |
| CATAAGAG | -0.186 |
| ATTGTCGG | 0.124 |
| CGAGTGAC | -0.0282 |
| AAGAGCCA | -0.0601 |
| ACTCAGGA | -0.0822 |
| CGGGATTC | 0.212 |
| GCGTACTA | 0.221 |
| CACAGTGC | 0.0144 |
| ACTCCGAC | 0.0975 |
| GCGATAAA | 0.0527 |
| CCTCACGC | 0.0938 |
| CAGGGCAC | -0.13 |
| ATATCGCG | 0.348 |
| AAGGTTGC | 0.0109 |
| AAAGCCCA | -0.0915 |
| CCCACCCA | -0.244 |
| CTGCTAAC | -0.168 |
| AGAGGTTG | -0.156 |
| ACATAAGG | -0.0144 |
| CCATCTAC | -0.00471 |
| CGACGGGC | 0.315 |
| AGTGTGCA | -0.222 |
| AAATACAG | -0.23 |

Block 6
Target: CCNA1, cyclin fold, Cln2 fusion (human)
Technique: yeast growth competition, sequencing
Sample: yeast
Setting: weak parent motif
Baseline: not given
Direction: higher = stronger binding
Parent: TICRR docking peptide (human); TKVRRNLFNQELL
| Variant | normalised enrichment score |
| --- | --- |
| TKVRRNLFAQELL [N9A] | 0.419 |
| TKVRRALFNQELL [N6A] | 0.663 |
| TKVARNLFNQELL [R4A] | 0.125 |
| TKVRKNLLNQELL [R5K F8L] | 0.321 |
| TKVRANLFNQELL [R5A] | 0.387 |
| TKVRRNLFNQELA [L13A] | 0.841 |
| TKVRRNLANQELL [F8A] | 0.0776 |

Single results of other studies
| Substance | target | assay | system | setting | how to read | quantity | result |
| --- | --- | --- | --- | --- | --- | --- | --- |
| PhoQ, residues 284 288 289 292 302 303 SSTLLI | PhoP, residues 12 14 15 18 19 NMSFL (Escherichia coli, UniProt P23836) | Sort-seq, refers to: YFP reporter | E. coli | PhoQ-PhoP variant library, with: 10 µM Mg2+ | baseline: high Mg2+ state, higher = stronger signaling | fold induction | 12.7 |

Repeated from above (block 5):
| Oligonucleotide | E-score |
| --- | --- |
| CCCACCCA | -0.244 |
| CTGCTAAC | -0.168 |
| AGAGGTTG | -0.156 |
| ACATAAGG | -0.0144 |
| CCATCTAC | -0.00471 |
| CGACGGGC | 0.315 |
| AGTGTGCA | -0.222 |
